Results gathered from unrelated publications.
± marks the error that the study gave.

For `O=C(/C=C/c1ccc(O)c2c1[C@H](C(=O)O)[C@@H](c1ccc(O)c(O)c1)O2)O[C@H](Cc1ccc(O)c(O)c1)C(=O)O`, the AUC(0-t) was 153 ± 60.5 ng·h/mL (UPLC-MS/MS; Wistar rat, microcirculation dysfunction model, plasma; oral, 100 mg/kg Salvia miltiorrhiza stem-leaf extract FT).
With `CS(=O)(=O)c1ccc(-c2cnc(N)c(-c3ccc(C(F)(F)F)nc3)c2)cc1` the AUC(0-t) was 141000 ng·h/mL (pregnant female Sprague-Dawley rat, plasma; oral, 30 mg/kg/day, gestation day 17).
`CN(Cc1cnc2nc(N)nc(N)c2n1)c1ccc(C(=O)N[C@@H](CCC(=O)O)C(=O)O)cc1` gave an AUC(0-t) of 3.8 ± 0.655 µM·h (rat, plasma; oral, 5.0 mg/kg, 2880 min, with: indican 40.0 mg/kg oral).
`CCCC[C@H](NC(C)=O)C(=O)N[C@H]1CCC(=O)NC[C@@H](C(=O)N[C@@H](Cc2c[nH]c3ccccc23)C(N)=O)NC(=O)[C@H](CCCNC(=N)N)NC(=O)[C@@H](Cc2ccccc2)NC(=O)[C@H](Cc2c[nH]cn2)NC1=O` has an AUC(0-t) of 1030 ng·h/mL (CD Sprague-Dawley rat, male, plasma; subcutaneous, 1.0 mg/kg/day, day 1).
With `O=C(O)/C=C/c1ccc(O)c(O)c1` the AUC(0-t) was 45.1 ± 6.76 ng·h/mL (UPLC-MS/MS; Wistar rat, microcirculation dysfunction model, plasma; oral, 100 mg/kg Salvia miltiorrhiza stem-leaf extract FT).
`CCN(CC)Cc1cc(Nc2ccnc3cc(Cl)ccc23)ccc1O` gave an AUC(0-t) of 4840 ± 608 ng·h/mL (rat, Wistar, male, plasma; oral, 60 mg/kg, with: myricetin 5 mg/kg iv).
`C[C@@H]1CCN(C(=O)CC#N)C[C@@H]1N(C)c1ncnc2[nH]ccc12` gave an AUC(0-t) of 11600 ± 4360 ng·h/mL (Sprague-Dawley rats, male, plasma; oral, 10 mg/kg, with: linagliptin 5 mg/kg).
`CNC(=O)c1ccc(-c2cnc3ncc(Cc4ccc5ncccc5c4)n3n2)cc1F` gave an AUC(0-t) of 5920 ng·h/mL (moderate hepatic impairment; oral, 200 mg, mean).
`O=C(/C=C/c1ccc(O)c(O)c1)O[C@H](Cc1ccc(O)c(O)c1)C(=O)O` has an AUC(0-t) of 110 ± 18.6 ng·h/mL (UPLC-MS/MS; Wistar rat, microcirculation dysfunction model, plasma; oral, 100 mg/kg Salvia miltiorrhiza stem-leaf extract FT).
With `O=C(O)C[C@H](O)C[C@H](O)/C=C/c1c(C2CC2)nc2ccccc2c1-c1ccc(F)cc1` the AUC(0-t) was 2020 ± 394 ng·h/mL (male Sprague-Dawley rat (wild type), plasma; oral, 5 mg/kg).
With `O=C(/C=C/c1ccc(O)c(O)c1/C=C/c1ccc(O)c(O)c1)O[C@H](Cc1ccc(O)c(O)c1)C(=O)O` the AUC(0-t) was 137 ± 37.4 ng·h/mL (UPLC-MS/MS; Wistar rat, microcirculation dysfunction model, plasma; oral, 100 mg/kg Salvia miltiorrhiza stem-leaf extract FT).
For `CCN1CCN(c2ccc(Nc3cc(N(C)C(=O)Nc4c(Cl)c(OC)cc(OC)c4Cl)ncn3)cc2)CC1`, the AUC(0-t) was 354 ng·h/mL (LC-MS/MS; juvenile male Crl:WI(Han) rats, plasma; oral gavage, 1.0 mg/kg/day, postnatal day 17).
